# Assay results of several laboratories.
# A part holds a random share of what one study measured. Changes are numbered by the printed parent chain.

# Sample 1
# Target: RNA binding protein fox-1 homolog 2, RRM domain, GST-SBP tag (RBFOX2, Homo sapiens, UniProt O43251-10, residues 100-194)
# Technique: RNA Bind-n-Seq
# Molecule type: RNA
# Matrix: in vitro
# Concentration: 365 nM
# Notes: natural RNA segment, single round, ends assumed
# Baseline: no-protein control
# Reading: higher = stronger binding
# Construct (chain): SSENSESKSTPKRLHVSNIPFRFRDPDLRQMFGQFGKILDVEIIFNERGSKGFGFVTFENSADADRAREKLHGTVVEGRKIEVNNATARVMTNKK
Sequence,RBNS enrichment (R)
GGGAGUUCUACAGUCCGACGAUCUCUCUGUAUCUUUUUUUUACUAUUGUUGUUUUGACCUCAAAGCUGGGAAUAAAAGUCAGAGCCUUACACAUGUCCAGCAAAAACUAUGGUUGGGAUACACCUAUUAUCCCUGGAAUUCUCGGGUGCCAA,0.805
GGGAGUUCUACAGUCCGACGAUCUACAUAAAUGAGUUGAUGAUAUUUAACCAGUUUUUAUAAACUUCAUUUAGGUCUCUAAACACAGACUUUUUAAAUUGCAACUGUAAAUAUGAAAUGGUCAUCACAUCUGAUGGAAUUCUCGGGUGCCAA,0.331
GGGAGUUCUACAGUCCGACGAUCUCAUUACCCAUUGGGAAACACAAUGGCUACUUCUGUUAGGGUACAUUGACCUUGGUCAAGCAUCUUAAAGAAGGCAACCCUAAUUGAGAGCUGUCUUGGCUAAUACUCUGUGGAAUUCUCGGGUGCCAA,0.268
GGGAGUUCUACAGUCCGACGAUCGGUUCUACCCUUUCUGCCUUCUGUUUGGGACCCAGCUGGUGUUCUUUGGUUUGCUUUCUUCAGGCUCUAGGGCUGUGCUAUCCAAUACAGUAACCACAUGCGGCUGUUUAUGGAAUUCUCGGGUGCCAA,0.29
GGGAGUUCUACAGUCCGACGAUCGAAAAUUGUUUAGUGAUAUUACAUUUAUUUAUCCAGAAAACUGUGAUUUCAGGAGAACCUAACAUGCUGGUGAAUAUUUUCAACUUUUUCCCUCACUAAUUGGUACUUUUUGGAAUUCUCGGGUGCCAA,0.585
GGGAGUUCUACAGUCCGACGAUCGUUUAAUUGCCAUGCUUAAUAAAUCAUGAGAACAAAAGAGUAUAGAAUGGAAAGCAUUCCCUGGUAGCUACUUUAAAUACAGGAGCCCUGUAACUUAAUACCAGUAGUCAUGGAAUUCUCGGGUGCCAA,0.786
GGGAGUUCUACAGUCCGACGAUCUGCCCUCUGAAAGAAGGGUUUUCUGUGCUGUGAAAUGCAUAGAACUAUACUUUGCCAUGCACGACUGUUCCUGCAAUUGAUAUUGUGUGAAAUCUGGGAGGGUGGUCUUUUGGAAUUCUCGGGUGCCAA,1.1
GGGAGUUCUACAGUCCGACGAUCUAAAUUUUGUUGAAUAAAUUAAGCUCAACUAUUUGUAUUUCAAUAGUUGAGUUGUAUUGCUUCCUGUUCUUCAAGCUUAAUUUGAACUGUCUAAUAAAAAGAAGUAAUUAUGGAAUUCUCGGGUGCCAA,0.738

# Sample 2
# Target: Histone acetyltransferase KAT6A, winged helix 1, GST fusion (KAT6A, Homo sapiens, UniProt Q92794, residues 1-85)
# Technique: protein binding microarray
# Molecule type: double-stranded DNA, one strand shown
# Matrix: in vitro
# Concentration: not given
# Notes: 8-mer, flanks averaged, mean of 2 arrays, mostly near background
# Baseline: not given
# Reading: higher = stronger binding
# Construct (chain): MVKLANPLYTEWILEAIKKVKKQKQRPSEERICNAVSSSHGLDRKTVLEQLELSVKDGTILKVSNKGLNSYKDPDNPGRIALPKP
Sequence,E-score
AATGGAAG,0.00938
ATAAGGTA,-0.106
ATAATCAT,-0.146
CAATTCCC,-0.142
CATGATTA,-0.0277
ATCTTAGA,-0.0854
GCCGTTAC,0.334
ATACGTAA,0.0325
GACACCCC,0.0504
TACGATCA,-0.0901
GCGCGCTA,0.44
ATGAGCGA,0.179
TTACCGAA,0.0122
AGAAGAAC,-0.0799
CACAATGC,0.0588
GGCCATTA,-0.0479
AAGGAGAG,-0.18

# Sample 3
# Target: ABI1, truncated, D143A, DHFR fusion (Arabidopsis thaliana)
# Technique: DHFR PCA, deep sequencing
# Matrix: yeast
# Notes: methotrexate growth selection, single substitutions
# With: (+)-ABA 0.39 µM
# Baseline: wild-type fitted maximum
# Reading: higher = stronger binding
# Starting sequence: PYL1, truncated, DHFR fusion (Arabidopsis thaliana); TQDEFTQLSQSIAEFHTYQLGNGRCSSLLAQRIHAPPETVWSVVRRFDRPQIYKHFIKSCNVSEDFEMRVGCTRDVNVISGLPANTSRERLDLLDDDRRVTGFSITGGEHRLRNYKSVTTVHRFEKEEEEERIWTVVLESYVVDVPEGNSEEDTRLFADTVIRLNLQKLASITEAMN
Variant,relative binding score [%]
L28R,-0.607
D48Y,11.1
H122V,-12.6
P146R,2
F103G,-12.4
V40E,-5.97
Q2N,41.3
R163G,21.9
R46C,20.1
R49C,38.3
T1W,38.1
E67K,35.1
R45Y,6.45
P146S,8.35
A170F,-30.5
F15A,-7.57
V70Y,2.14
C60N,-8.64
T6L,47.8
V78T,24
P83R,11.6
R69V,51.3
E128M,31
C25H,5.59

# Sample 4
# Target: Prothrombin, mature alpha-thrombin (F2, Homo sapiens, UniProt P00734)
# Technique: aptamer microarray, sandwich
# Molecule type: DNA with 2'F-ANA
# Matrix: in vitro
# Concentration: 200 nM
# Notes: whole 15-mer aptamer, many near background
# With: Cy3 exosite-II aptamer, 400 nM
# Reading: higher = stronger binding
# Sequence: GGTTGGTGTGGTTGG
Modification,mean fluorescence intensity
2'F-ANA at 2 9 12 13 14,159 a.u.
2'F-ANA at 1 6 7 8 10 13 14,107 a.u.
2'F-ANA at 3 7 8 9 11 12 13 14 15,658 a.u.
2'F-ANA at 6 7 11 12 13 14 15,204 a.u.
2'F-ANA at 2 4 6 7 8 11 14 15,99 a.u.
2'F-ANA at 1 2 4 8 13 14 15,52.9 a.u.
2'F-ANA at 3 4 6 10 13,218 a.u.
2'F-ANA at 2 6 9 10 11 13 14,107 a.u.
2'F-ANA at 1 5 9 10 11 12 13 14 15,127 a.u.
2'F-ANA at 3 4 5 7 8 9 11 13 14 15,53.4 a.u.
2'F-ANA at 1 2 3 4 12 15,399 a.u.
2'F-ANA at 2 5 7 8 10 11 15,46.9 a.u.
2'F-ANA at 1 2 4 12 14,69.2 a.u.
2'F-ANA at 3 5 7 9 11 14,54.8 a.u.
2'F-ANA at 2 4 7 8 9 11 12 14,118 a.u.
2'F-ANA at 2 6 7 10 12 13 15,128 a.u.
2'F-ANA at 2 5 7 8 13 14 15,76 a.u.
2'F-ANA at 1 3 6 13 14 15,79.4 a.u.
2'F-ANA at 1 3 4 6 7 8 12 13 14 15,96.2 a.u.
2'F-ANA at 1 4 5 6 7 9 11 12,87.8 a.u.
2'F-ANA at 2 3 4 6 7 10 13 14 15,153 a.u.
2'F-ANA at 1 7 8 10 11 13 14,50.3 a.u.
2'F-ANA at 1 2 4 7 8 9 10 11 12 13 15,57.6 a.u.
2'F-ANA at 1 3 4 6 8 10 11 14 15,115 a.u.

# Excerpt of the above (sample 3):
Variant,relative binding score [%]
R69V,51.3
P83R,11.6
R46C,20.1
A170F,-30.5
R45Y,6.45
F15A,-7.57
